Measurements pooled from the literature.
Each numbered part is a random draw from the data of one study; scales do not carry over between parts. Values joined by “and” are separate records of one study, mostly repeats; a detail may differ.
Sequence of UniProt Q00526 (whole entry, looked up): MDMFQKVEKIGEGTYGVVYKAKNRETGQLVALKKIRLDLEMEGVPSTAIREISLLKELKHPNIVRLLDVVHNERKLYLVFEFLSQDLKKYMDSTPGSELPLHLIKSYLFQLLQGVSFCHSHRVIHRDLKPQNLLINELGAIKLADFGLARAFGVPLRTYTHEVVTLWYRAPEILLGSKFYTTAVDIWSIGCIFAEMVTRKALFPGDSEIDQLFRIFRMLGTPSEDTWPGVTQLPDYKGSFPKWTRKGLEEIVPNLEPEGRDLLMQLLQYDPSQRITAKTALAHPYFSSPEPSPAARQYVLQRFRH
Sequence of UniProt P29597 (whole entry, looked up): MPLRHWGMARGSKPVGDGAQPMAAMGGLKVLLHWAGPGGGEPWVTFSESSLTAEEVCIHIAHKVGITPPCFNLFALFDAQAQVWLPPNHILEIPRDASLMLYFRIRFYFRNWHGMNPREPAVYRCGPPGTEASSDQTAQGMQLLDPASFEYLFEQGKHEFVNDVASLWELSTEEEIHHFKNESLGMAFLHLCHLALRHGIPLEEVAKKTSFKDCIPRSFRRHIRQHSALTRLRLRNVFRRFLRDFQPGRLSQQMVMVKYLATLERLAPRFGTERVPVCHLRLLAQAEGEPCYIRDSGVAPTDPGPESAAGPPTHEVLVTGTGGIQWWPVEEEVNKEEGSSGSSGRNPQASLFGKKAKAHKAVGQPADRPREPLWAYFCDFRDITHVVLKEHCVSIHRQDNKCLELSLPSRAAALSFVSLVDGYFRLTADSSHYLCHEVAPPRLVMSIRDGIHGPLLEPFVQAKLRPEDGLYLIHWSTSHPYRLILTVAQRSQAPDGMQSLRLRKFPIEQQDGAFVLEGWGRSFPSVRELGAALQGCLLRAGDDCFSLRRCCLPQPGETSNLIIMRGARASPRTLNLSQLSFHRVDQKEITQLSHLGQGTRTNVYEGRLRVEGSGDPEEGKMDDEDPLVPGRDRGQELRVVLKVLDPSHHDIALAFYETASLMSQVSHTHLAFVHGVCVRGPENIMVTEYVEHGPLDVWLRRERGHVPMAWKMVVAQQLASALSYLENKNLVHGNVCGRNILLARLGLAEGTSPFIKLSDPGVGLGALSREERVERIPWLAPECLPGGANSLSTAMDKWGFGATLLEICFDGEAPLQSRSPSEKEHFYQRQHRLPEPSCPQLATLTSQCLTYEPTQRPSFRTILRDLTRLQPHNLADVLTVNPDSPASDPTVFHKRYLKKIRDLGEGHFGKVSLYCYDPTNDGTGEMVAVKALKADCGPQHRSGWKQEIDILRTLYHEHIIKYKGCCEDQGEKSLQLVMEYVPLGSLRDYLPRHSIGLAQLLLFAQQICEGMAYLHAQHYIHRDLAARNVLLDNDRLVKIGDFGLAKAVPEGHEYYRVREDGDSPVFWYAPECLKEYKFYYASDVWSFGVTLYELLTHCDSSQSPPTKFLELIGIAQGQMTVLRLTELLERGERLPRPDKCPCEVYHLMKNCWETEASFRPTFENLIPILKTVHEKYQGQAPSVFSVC
Sequence of UniProt Q9NWZ3 (whole entry, looked up): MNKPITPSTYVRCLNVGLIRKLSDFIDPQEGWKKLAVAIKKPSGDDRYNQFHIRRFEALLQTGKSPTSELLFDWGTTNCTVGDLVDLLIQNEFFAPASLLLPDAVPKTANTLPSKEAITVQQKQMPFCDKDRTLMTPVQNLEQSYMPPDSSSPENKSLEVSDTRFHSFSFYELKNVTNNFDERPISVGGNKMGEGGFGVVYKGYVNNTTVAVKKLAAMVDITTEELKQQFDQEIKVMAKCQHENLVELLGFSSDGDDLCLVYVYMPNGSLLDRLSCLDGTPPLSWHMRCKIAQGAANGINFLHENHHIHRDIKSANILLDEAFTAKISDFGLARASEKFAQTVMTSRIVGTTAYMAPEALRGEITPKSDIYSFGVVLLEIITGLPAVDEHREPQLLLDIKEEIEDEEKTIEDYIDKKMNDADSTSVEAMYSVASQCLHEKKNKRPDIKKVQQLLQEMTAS
Sequence of UniProt P80192 (whole entry, looked up): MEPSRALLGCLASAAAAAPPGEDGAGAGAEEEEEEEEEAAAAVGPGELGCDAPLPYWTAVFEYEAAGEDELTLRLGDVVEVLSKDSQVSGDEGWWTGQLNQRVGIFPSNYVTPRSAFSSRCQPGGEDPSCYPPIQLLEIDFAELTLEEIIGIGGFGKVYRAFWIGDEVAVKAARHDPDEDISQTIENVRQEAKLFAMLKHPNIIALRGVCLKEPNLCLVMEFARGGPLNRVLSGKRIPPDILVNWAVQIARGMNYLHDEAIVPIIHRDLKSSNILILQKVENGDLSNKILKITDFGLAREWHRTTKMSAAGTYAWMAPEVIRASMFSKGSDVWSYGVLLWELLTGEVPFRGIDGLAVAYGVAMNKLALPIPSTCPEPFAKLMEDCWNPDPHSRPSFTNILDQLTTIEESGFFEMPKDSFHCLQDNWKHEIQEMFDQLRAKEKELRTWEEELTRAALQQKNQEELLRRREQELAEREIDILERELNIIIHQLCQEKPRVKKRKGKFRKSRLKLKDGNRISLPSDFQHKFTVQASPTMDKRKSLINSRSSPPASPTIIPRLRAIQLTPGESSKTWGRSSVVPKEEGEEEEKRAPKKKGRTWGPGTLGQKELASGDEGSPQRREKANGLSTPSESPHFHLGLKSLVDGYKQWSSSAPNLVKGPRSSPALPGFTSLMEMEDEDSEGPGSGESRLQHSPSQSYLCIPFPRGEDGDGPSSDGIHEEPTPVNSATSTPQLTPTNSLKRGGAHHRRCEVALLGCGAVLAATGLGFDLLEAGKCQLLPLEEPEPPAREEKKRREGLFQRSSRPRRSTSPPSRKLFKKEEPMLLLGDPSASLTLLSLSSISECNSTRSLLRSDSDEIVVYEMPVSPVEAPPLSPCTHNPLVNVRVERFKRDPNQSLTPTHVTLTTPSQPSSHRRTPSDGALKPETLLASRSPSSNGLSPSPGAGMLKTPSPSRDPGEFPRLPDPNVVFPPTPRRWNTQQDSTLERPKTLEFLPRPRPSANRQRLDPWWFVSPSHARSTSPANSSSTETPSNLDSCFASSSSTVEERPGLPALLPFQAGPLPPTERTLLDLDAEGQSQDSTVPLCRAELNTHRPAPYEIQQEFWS
Sequence of UniProt Q13164 (whole entry, looked up): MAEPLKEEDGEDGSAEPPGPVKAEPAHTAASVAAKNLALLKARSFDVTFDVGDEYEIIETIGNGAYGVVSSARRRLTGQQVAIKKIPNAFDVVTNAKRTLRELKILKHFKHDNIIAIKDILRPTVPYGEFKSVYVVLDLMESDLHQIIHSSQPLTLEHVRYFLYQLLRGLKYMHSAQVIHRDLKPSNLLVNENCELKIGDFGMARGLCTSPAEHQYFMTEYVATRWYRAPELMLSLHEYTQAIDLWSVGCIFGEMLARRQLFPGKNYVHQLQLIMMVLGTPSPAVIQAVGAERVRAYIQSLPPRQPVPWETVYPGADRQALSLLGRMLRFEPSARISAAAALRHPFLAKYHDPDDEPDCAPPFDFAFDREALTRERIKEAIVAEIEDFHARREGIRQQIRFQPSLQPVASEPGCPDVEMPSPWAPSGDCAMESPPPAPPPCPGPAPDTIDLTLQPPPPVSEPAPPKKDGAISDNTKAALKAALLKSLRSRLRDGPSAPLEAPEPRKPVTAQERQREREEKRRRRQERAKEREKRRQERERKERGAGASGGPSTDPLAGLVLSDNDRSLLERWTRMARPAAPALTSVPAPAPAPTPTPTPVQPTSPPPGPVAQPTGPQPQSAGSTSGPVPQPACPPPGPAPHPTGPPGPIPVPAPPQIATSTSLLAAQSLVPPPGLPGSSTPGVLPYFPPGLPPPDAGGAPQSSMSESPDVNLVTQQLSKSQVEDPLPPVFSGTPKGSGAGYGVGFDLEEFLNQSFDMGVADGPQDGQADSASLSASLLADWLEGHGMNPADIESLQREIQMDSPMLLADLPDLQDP

Sample 1
SMILES: CNC(=O)Nc1ccc2c(c1)CC[C@@]21OC(=O)N(CC(=O)N(Cc2ccc(F)cc2)[C@@H](C)C(F)(F)F)C1=O
Observed: cell-free assay
Technique: competition with immobilised ligand
Concentration: 1 µM
| target | remaining binding [%] |
| --- | --- |
| Mitogen-activated protein kinase 7 (MAPK7, Homo sapiens, UniProt Q13164) | 60 |
| Cyclin-dependent kinase 3 (CDK3, Homo sapiens, UniProt Q00526) | 100 |
| Interleukin-1 receptor-associated kinase 4 (IRAK4, Homo sapiens, UniProt Q9NWZ3) | 78 |
| Non-receptor tyrosine-protein kinase TYK2, JH2 (TYK2, Homo sapiens, UniProt P29597) | 86 |
| Cyclin-dependent kinase 4, with cyclin D1 (CDK4, Homo sapiens, UniProt P11802) | 91 |
| Serine/threonine-protein kinase TBK1 (TBK1, Homo sapiens, UniProt Q9UHD2) | 83 |
| Receptor tyrosine-protein kinase erbB-2 (ERBB2, Homo sapiens, UniProt P04626) | 100 |
| Microtubule-associated serine/threonine-protein kinase 1 (MAST1, Homo sapiens, UniProt Q9Y2H9) | 94 |
| Mitogen-activated protein kinase kinase kinase 2 (MAP3K2, Homo sapiens, UniProt Q9Y2U5) | 100 |
| Ephrin type-B receptor 4 (EPHB4, Homo sapiens, UniProt P54760) | 80 |
| Mitogen-activated protein kinase kinase kinase 9 (MAP3K9, Homo sapiens, UniProt P80192) | 89 |
| Calcium/calmodulin-dependent protein kinase kinase 1 (CAMKK1, Homo sapiens, UniProt Q8N5S9) | 70 |
| Testis-specific serine/threonine-protein kinase 3 (TSSK3, Homo sapiens, UniProt Q96PN8) | 88 |
| G protein-coupled receptor kinase 4 (GRK4, Homo sapiens, UniProt P32298) | 98 |
| Phosphatidylinositol 4,5-bisphosphate 3-kinase catalytic subunit alpha isoform (PIK3CA, Homo sapiens, UniProt P42336, C420R) | 80 |
| Epidermal growth factor receptor (EGFR, Homo sapiens, UniProt P00533) | 100 |
| Serine/threonine-protein kinase D2 (PRKD2, Homo sapiens, UniProt Q9BZL6) | 100 |
| RAC-gamma serine/threonine-protein kinase (AKT3, Homo sapiens, UniProt Q9Y243) | 100 |
| Tyrosine-protein kinase receptor Tie-1 (TIE1, Homo sapiens, UniProt P35590) | 89 |
| Dual specificity mitogen-activated protein kinase kinase 5 (MAP2K5, Homo sapiens, UniProt Q13163) | 83 |
| Rhodopsin kinase GRK7 (GRK7, Homo sapiens, UniProt Q8WTQ7) | 83 |
| Serine/threonine-protein kinase 26 (STK26, Homo sapiens, UniProt Q9P289) | 90 |

Sample 2
Host: mouse
Sample: microsomes or S9
Concentration: 2 µM
Time: 0.5 h
| Structure (SMILES) | remaining compound |
| --- | --- |
| O=C(OC1CCc2ccccc2C1=O)c1ccccc1O (stereo not drawn) | 86.3% |
| CCOC(=O)COc1cc(Br)c(C#N)cc1OCC | 1.23% |
| CC(C)(C)C(=O)Nc1cc(NC(=O)C(C)(C)C)cc(C(=O)Nc2c[nH]c(=O)[nH]c2=O)c1 | 0.193% |

Sample 3
Target: RING finger protein unkempt homolog, zinc fingers 1-6, GST-SBP tag (UNK, Homo sapiens, UniProt Q9C0B0, residues 30-357)
Technique: RNA Bind-n-Seq
Form: RNA
Sample: in vitro
Concentration: not given
Notes: RNA with constant flanks, ends assumed
Relative to: input RNA pool
Reading: higher = stronger binding
Construct (chain): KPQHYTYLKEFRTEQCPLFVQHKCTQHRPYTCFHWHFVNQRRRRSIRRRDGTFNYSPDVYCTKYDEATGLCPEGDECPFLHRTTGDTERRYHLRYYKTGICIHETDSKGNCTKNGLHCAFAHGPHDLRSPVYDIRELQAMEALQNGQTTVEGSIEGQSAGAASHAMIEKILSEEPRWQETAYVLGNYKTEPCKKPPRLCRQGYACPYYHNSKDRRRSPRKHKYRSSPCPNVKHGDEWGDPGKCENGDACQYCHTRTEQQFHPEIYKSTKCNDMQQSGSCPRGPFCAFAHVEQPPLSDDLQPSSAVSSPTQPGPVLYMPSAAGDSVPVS
| Sequence | bound/input enrichment |
| --- | --- |
| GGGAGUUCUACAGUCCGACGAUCCACGGCUGAUUCGCUCAUCGGAAGAGCUGCACACAUAGCUGUUCUUGAUUCUGAGAUAUUUUCCGAGAAGUUUUUCCUGGUUGCCGCCCUCAAAUAUUUUCAGUAGGACCGAAGCAUCAUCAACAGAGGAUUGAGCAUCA | 0.15 ratio |
| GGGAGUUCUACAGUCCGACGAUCGAAGAGGAAAGAUUAGUAUCUCUUGUAUUUGGGCUUUUGAAACAAAGAAAACUUAAUUUUUCCGAAAUCUAUGGUGAAGAAAUGAUUAUUACAGCAAAGAACAUCAUUAAAGAGCGUGUGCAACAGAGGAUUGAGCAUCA | 0.524 ratio |
| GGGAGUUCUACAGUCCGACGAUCUCCUUCCCACAUCACAGGGCUACCUUGAGACUUUCUGAGAAGUUUAUUCUUCUCCUUAUUCUCCGUGCCUUCAUCACUCUGUGUUUUGGGGCAUUCUUUUUCCUUCCAGACUCUUCAAAACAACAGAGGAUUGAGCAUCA | 0.334 ratio |
| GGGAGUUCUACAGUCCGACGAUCGACAUUAUCAAGUUUCUGCAGGAACACGGUUCAGAUUCGUUUCUUGCAGAACAUAAAUUAUCCGGAAACAUUAAAAAUGUGGCCAAGACAGCUAACAAGGACCACUUGGUUACAGCCUAUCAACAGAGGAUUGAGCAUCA | 0.233 ratio |
| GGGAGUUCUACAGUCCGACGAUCGAAGAUGGGCCUCCAGAACUCCUGUUUAUUCAUGGAGGACACACUGCUAAGAUUUCAGAUUUCCGCUGGAACCCCAAUGAGCCUUGGGUCAUUUGCUCAGUGUCUGAGGAUAACAUCAUGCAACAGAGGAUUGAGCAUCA | 0.141 ratio |
| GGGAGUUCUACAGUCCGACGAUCAAUGGGCGGCUGGGACAGGGGAACGCUUGCAGGAUGGACCCCCUACCCCAAGAAUGGAAGUCCGGGGUGGUUGUUUCUCCAUUUAUGGCAUUGGGUUCGGAGAUGGGCCAUGAUGAAGGGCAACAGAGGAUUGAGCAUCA | 0.266 ratio |
| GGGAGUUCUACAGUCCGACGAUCAGGCAUUAUCUCAUUCAUACCGGUCAAAAGCCAUUUGAAUGUGAUGUGUGCCAUAAAAACUUCCGACAACUCGUUCAUCUGGAGAGGCAUCAGUUAACUCACAAUCUGCCUUUCAGUUGUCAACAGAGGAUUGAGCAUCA | 0.057 ratio |
| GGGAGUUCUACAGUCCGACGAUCACUUCUUUGAAAAGUCCCAUCAAACAAAUAGCAUGGGAGCAAAAACAGAGGGGCUUUAUUUCCGAUAUGUCUAAUUUUAAGCCUGAAAAGGUAAAACAAAGGUCAUUGUCAGAAGCAAUUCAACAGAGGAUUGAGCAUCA | 0.176 ratio |

Sample 4
Organism: Plasmodium berghei
Mode: inhibitor
Cell line: Huh-7
Strain: GFP-expressing sporozoites, liver stage
Concentration: 10 µM
Time: 24 h
Relative to: untreated control
| Structure (SMILES) | infection rate |
| --- | --- |
| CC=CC(=O)N(CC)c1ccccc1C | 124% |
| Nc1ccc(C(=O)O)c(O)c1 | 98.8% |
| CN1CCC(OC(c2ccccc2)c2ccccc2)CC1 | 110% |

Sample 5
Target: Beta-1 adrenergic receptor (ADRB1, Homo sapiens, UniProt P08588)
Sequence of UniProt P08588 (whole entry, looked up): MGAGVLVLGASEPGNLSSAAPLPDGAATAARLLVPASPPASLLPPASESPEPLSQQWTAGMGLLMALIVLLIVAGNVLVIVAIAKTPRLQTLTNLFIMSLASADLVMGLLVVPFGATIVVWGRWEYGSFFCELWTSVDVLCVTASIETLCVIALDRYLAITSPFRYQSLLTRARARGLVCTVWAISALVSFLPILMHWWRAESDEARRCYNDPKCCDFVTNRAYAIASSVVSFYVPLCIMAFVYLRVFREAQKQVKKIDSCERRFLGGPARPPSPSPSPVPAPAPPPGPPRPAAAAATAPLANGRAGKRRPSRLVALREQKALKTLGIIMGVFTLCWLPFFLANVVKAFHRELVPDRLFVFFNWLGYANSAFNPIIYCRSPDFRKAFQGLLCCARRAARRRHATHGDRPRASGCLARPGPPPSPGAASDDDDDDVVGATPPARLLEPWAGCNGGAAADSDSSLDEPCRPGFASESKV
Mode: agonist
| SMILES | EC50 |
| --- | --- |
| CN(C)c1cccc(-c2nccc3c(=O)cc(-c4cn[nH]c4)oc23)c1 | ≥ 100 µM |
| Cc1cc2c(-c3cccc(O)c3)nc(-c3c(C)noc3C)cc2[nH]1 | ≥ 100 µM |
| Cc1noc2c(-c3cccnc3Nc3ccncc3)cc(-c3ccccc3)nc12 | ≥ 100 µM |

Sample 6
Target: Ras GTPase-activating protein-binding protein 1, C-terminal RGG region (G3BP1, Homo sapiens, UniProt Q13283)
Sequence of UniProt Q13283 (whole entry, looked up): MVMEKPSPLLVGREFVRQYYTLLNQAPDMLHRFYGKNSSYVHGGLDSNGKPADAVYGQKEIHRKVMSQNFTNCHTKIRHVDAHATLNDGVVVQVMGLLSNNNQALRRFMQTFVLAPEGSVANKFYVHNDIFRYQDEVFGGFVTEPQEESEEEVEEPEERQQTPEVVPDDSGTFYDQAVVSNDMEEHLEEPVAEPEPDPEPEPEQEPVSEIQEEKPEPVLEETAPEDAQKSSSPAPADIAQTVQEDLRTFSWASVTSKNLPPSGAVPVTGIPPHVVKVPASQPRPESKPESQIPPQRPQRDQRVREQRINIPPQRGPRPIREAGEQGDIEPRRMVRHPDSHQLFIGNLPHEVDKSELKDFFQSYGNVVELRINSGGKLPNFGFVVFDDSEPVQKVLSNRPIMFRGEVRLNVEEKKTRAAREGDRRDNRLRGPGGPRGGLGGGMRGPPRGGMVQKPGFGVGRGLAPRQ
Technique: RNA Bind-n-Seq
Form: RNA
Sample: in vitro
Concentration: 1 µM
Notes: whole 134-nt RNA, ends assumed
With: 150 mM KCl
Relative to: input library
Reading: higher = stronger binding
| Sequence | log2 enrichment |
| --- | --- |
| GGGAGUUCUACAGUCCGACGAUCUUGCAGGAGCCGCCGCGCCUCGGCCUAGCAUGUCGGAAGCGGGCGAGGAGCAGCCCAUGGAGACGACGGGCGCCACCGAGAACGGACAUGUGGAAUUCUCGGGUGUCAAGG | -0.956 |
| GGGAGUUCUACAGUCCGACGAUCAGUCCUGUGCUACACAUCGUAUGUACCGAAUCAAACCCCCAAAUUUAAAUUUUUAAAAAAGUAUUAUGUUACGCCGUUCGGAUCUGCACUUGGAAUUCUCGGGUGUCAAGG | -0.983 |
| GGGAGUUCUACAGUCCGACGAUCUGGCCCUGGUGGCAUGCGGGGAGGAAGAGGUGGCCUCAUGGAUCGUGGUGGUCCCGGUGGAAUUUUCAGAGGUGGCCGUGGUGGAGACAGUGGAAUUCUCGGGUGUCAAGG | 1.22 |
| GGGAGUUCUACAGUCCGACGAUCCCUCAAGUCCUGUGCUACACAUCGUAUGUACCGAAUCGGGCCGGCCGGGCCGGAAAGUAUUAUGUUACGCCGUUCGGAUCUGCACUUCCAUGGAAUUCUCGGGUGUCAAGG | -1.02 |
| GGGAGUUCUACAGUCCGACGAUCUCAAGUCCUGUGCUACACAUCGUAUGUACCGAAUCGGCCGGGGCCGGGGCCGGGGAAAGUAUUAUGUUACGCCGUUCGGAUCUGCACUUCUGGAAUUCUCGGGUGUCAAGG | -2.48 |
| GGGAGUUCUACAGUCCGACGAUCGCAGGAAGUAAAAACAAAUGGAACUGCUUCGGAUAGUGGCAGGGGUGGGGGUUGCUAAGGAAAGGGUGGGAUGGGAGUGGGUAAAGAGUUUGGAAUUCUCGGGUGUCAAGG | 1.94 |
| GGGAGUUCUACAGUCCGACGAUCCUCAAGUCCUGUGCUACACAUCGUAUGUACCGAAUCGGUUGGGGUUGGUUGGGAAAGUAUUAUGUUACGCCGUUCGGAUCUGCACUUCCAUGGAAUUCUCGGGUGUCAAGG | -0.606 |
| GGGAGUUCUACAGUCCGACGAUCAAGUCCUGUGCUACACAUCGUAUGUACCGAAUCGGGGUGGGGUGGGGUUUUUGGGGAAAGUAUUAUGUUACGCCGUUCGGAUCUGCACUUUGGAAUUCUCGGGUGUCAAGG | 1.4 |

Mixed results
| SMILES | target or system | assay | system | conditions | scale | measurement | result |
| --- | --- | --- | --- | --- | --- | --- | --- |
| O=C1CCC(N2Cc3cc(C4CCN(Cc5ccccc5)CC4)ccc3C2=O)C(=O)N1 (stereo not drawn) | – | – | male CD-1 mouse, plasma | intravenous, 1 mg/kg, 4.98 min | – | concentration | 204 ng/mL |
| CC(C)n1cnc(-c2ccc(F)cc2)c1-c1ncc(C(=O)Nc2ccc(N3CCN(C)CC3)cc2)[nH]1 | – | phase 2a clinical trial | patients with idiopathic pulmonary fibrosis | 30 mg once daily | – | patients with Arthritis TEAE | 0% |
| COc1cc(C(=O)N2CCC(N3CCN(C)CC3)CC2)ccc1Nc1ncc2c(n1)N(C)c1ccccc1C(=O)N2C | FER (mouse) | probe labelling, KiNativ ADP probe | mouse brain lysate | 1 µM, LYS1 labelled site | – | inhibition | -4% |
| N=C(N)NC(=O)Cc1c(Cl)cccc1Cl | mouse MPNST tumor cells | high-content nuclear imaging, measured: cell number | – | 10 µM, 12 h, mean of 2 replicates | relative to: plate mean, higher = more cells | nuclei count | 1.75 z-score and 0.945 z-score |

Excerpt of the above (sample 6):
| Sequence | log2 enrichment |
| --- | --- |
| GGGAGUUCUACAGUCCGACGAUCGCAGGAAGUAAAAACAAAUGGAACUGCUUCGGAUAGUGGCAGGGGUGGGGGUUGCUAAGGAAAGGGUGGGAUGGGAGUGGGUAAAGAGUUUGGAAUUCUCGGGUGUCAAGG | 1.94 |
| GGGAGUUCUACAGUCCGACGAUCAAGUCCUGUGCUACACAUCGUAUGUACCGAAUCGGGGUGGGGUGGGGUUUUUGGGGAAAGUAUUAUGUUACGCCGUUCGGAUCUGCACUUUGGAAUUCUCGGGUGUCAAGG | 1.4 |
| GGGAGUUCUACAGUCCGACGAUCUGGCCCUGGUGGCAUGCGGGGAGGAAGAGGUGGCCUCAUGGAUCGUGGUGGUCCCGGUGGAAUUUUCAGAGGUGGCCGUGGUGGAGACAGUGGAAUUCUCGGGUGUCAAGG | 1.22 |
| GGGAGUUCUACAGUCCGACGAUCAGUCCUGUGCUACACAUCGUAUGUACCGAAUCAAACCCCCAAAUUUAAAUUUUUAAAAAAGUAUUAUGUUACGCCGUUCGGAUCUGCACUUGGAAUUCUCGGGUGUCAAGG | -0.983 |
| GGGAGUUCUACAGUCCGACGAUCUCAAGUCCUGUGCUACACAUCGUAUGUACCGAAUCGGCCGGGGCCGGGGCCGGGGAAAGUAUUAUGUUACGCCGUUCGGAUCUGCACUUCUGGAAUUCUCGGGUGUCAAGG | -2.48 |
| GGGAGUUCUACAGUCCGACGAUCCCUCAAGUCCUGUGCUACACAUCGUAUGUACCGAAUCGGGCCGGCCGGGCCGGAAAGUAUUAUGUUACGCCGUUCGGAUCUGCACUUCCAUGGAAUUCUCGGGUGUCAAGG | -1.02 |
| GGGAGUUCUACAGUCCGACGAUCCUCAAGUCCUGUGCUACACAUCGUAUGUACCGAAUCGGUUGGGGUUGGUUGGGAAAGUAUUAUGUUACGCCGUUCGGAUCUGCACUUCCAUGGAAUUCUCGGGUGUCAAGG | -0.606 |
